Measured values of several laboratories.
Each line is one published result; not all experiments were run side by side. Numbers after ± are the reported error.
Organism: Plasmodium falciparum

`CCCN(Cc1nnc(-c2ccco2)o1)C(=O)C1CCCN(C(=O)c2ccc(Cl)cc2)C1` (stereo not drawn) gave an EC50 of 0.0686 ± 0.049 µM (parasite growth).
`COc1cc2c3cc1Oc1cc(ccc1O)CC1c4c(cc(OC)c(O)c4Oc4ccc(cc4)CC3N(C)CC2)CCN1C` (stereo not drawn) has an inhibition of 100% (erythrocyte invasion; 17 µM).
With `Cc1nc2c(C#N)cccc2n1-c1ccc(C(=O)NC2CC2)s1` the EC50 was 0.00595 ± 0.0013 µM (parasite growth; Dd2).
`CN1CCN(S(=O)(=O)c2ccc(-c3ccc4ncnc(Nc5ccc(F)cc5)c4c3)cc2)CC1` gave an EC50 of 0.38 µM (parasite growth, SYBR Green fluorescence; C235 (TM91C235), drug-resistant).
With `COCCN(C)C(C)C(=O)NC(Cc1ccc(-c2ccccc2)cc1)B(O)O` (stereo not drawn) the IC50 was 7.73 ± 0.88 µM (compound-selected recrudescent clone 1E9_D2; 72 h).
The EC50 of `Cc1cc(Cl)ccc1OC(C)C(=O)N1CCc2ccccc21` (stereo not drawn) is reported as 0.0375 ± 0.006 µM (parasite growth).
`O=S(=O)(c1ccc(-c2ccc3ncnc(Nc4ccc(OCc5cccc(F)c5)c(Cl)c4)c3c2)cc1)N1CCCC1` has an EC50 of 0.42 µM (parasite growth, SYBR Green fluorescence; C235 (TM91C235), drug-resistant).
With `Cc1nc2ccc(-c3ccc(OC(F)(F)F)cc3)cc2c(O)c1C#N` the EC50 was 0.0117 ± 0.005 µM (parasite growth; Dd2).
`O=S(=O)(c1ccc(-c2ccc3ncnc(Nc4ccc(OCc5cccc(F)c5)c(Cl)c4)c3c2)cc1)N1CCCCC1` has an EC50 of 0.18 µM (parasite growth, SYBR Green; D6; blood stage).
With `COc1ccccc1-n1c(SCC(=O)Nc2ccccc2F)nc2cccnc21` the EC50 was 0.273 µM (parasite growth, SYBR Green; 3D7; 72 h).
`COC(=O)C1=CO[C@@H](C)[C@@H]2Cn3ccc4c5ccccc5nc-4c3C[C@H]12` gave a resistance index of 2 (growth, [3H]-hypoxanthine uptake; Dd2; 72 h; baseline: Dd2 IC50 over 3D7 IC50).
For `Cc1cc(Nc2ccc(Cl)cc2)n2nc(C(F)(F)F)nc2n1`, the EC50 was 1.09 ± 0.33 µM (parasite growth, SYBR Green; 3D7 wild type; 72 h).
`Nc1ncnc2c1c(-c1ccc(Oc3ccccc3)cc1)cn2C1CCCC1` — result for activity: “active” (growth, SYBR green; FVO; concentration not given, 36 h).
With `O=S(=O)(c1ccc(-c2ccc3ncnc(Nc4ccc(OCc5cccc(Cl)c5)c(Cl)c4)c3c2)cc1)N1CCOCC1` the EC50 was 0.33 µM (parasite growth, SYBR Green fluorescence; C235 (TM91C235), drug-resistant).
The selectivity index of `Oc1cccc2c1[nH]c1c(C3=CC4(O)CCC=CCCCCN5CCC3C3(CC6C=CCCCCN6C43)C5)nccc12` (single isomer, unassigned; (+)) is reported as 35 (W2, chloroquine-resistant; baseline: Vero IC50 over W2 IC50).
`CN1CCN(S(=O)(=O)c2ccc(-c3ccc4ncnc(Nc5ccc(OCc6ccccc6)cc5)c4c3)cc2)CC1` has an EC50 of 0.11 µM (parasite growth, SYBR Green fluorescence; W2, drug-resistant).
`O[C@]12C=C(c3nccc4c3[nH]c3ccccc34)[C@@H]3CCN(CCCC/C=C\CC1)C[C@@]31C[C@@H]3/C=C\CCCCN3[C@H]12` gave a selectivity index of 38 (W2, chloroquine-resistant; baseline: Vero IC50 over W2 IC50).
`c1ccc(COc2ccc(Nc3ncnc4ccc(-c5cccc(N6CCOCC6)c5)cc34)cc2)cc1` gave an EC50 of > 15 µM (parasite growth, SYBR Green fluorescence; W2, drug-resistant).
The inhibition of `COc1ccc2cc1Oc1cc3c(cc1OC)CCN(C)C3Cc1ccc(cc1)Oc1c(O)c(OC)cc3c1C(C2)N(C)CC3` (stereo not drawn) is reported as 100% (erythrocyte invasion; 1.34 µM).
`CN1CCN(S(=O)(=O)c2ccc(-c3ccc4ncnc(Nc5ccccc5)c4c3)cc2)CC1` gave an EC50 of 0.73 µM (parasite growth, SYBR Green fluorescence; C235 (TM91C235), drug-resistant).
`COc1ccccc1-n1ccnc1SCC(=O)Nc1cc(C(F)(F)F)ccc1Cl` gave an EC50 of 0.00225 µM (parasite growth, SYBR Green; 3D7).
